# Published values gathered from unrelated publications.
# Each numbered part is a random draw from the data of one study; scales do not carry over between parts. Changes are numbered by the printed parent chain.

# Sample 1 — target: CCNF, cyclin fold, Cln2 fusion (human); technique: yeast growth competition, sequencing; medium: yeast; setting: strong parent motif; reference: not given; reading: higher = stronger binding
# Starting sequence: INSM1 docking peptide (human); PKAIRKLHFEDEV
Change,normalised enrichment score
PKAIVKLHFEDEV [R5V],0.876
PKAIRPLHFEDEV [K6P],2.7
PKSIRKLHFEDEV [A3S],5.69
PKAIRKVHFEDEV [L7V],0.2
PKAIRKLHFTDEV [E10T],7.61
PKAIRKLHFESEV [D11S],7.74
PIAIRKLHFEDEV [K2I],6.8
PKAIIKLHFEDEV [R5I],0.296
PKAIRGLHFEDEV [K6G],2.76
PKAIRTLHFEDEV [K6T],5.76
PKAIRKLHFEDCV [E12C],7.86
PKAIRKLHFEVEV [D11V],7.47
PKAIRKFHFEDEV [L7F],-0.149
PKAITKLHFEDEV [R5T],1.04
PKAIGKLHFEDEV [R5G],0.382
PKAIRKLTFEDEV [H8T],6.93
PKAIRKLHFEDMV [E12M],8.42
PKAIRKLHFEQEV [D11Q],7.73
PKAIRKLHFEDDV [E12D],7.71

# Sample 2 — technique: RNA Bind-n-Seq; form: RNA; medium: in vitro; tested at: 200 nM; setting: whole 134-nt RNA, ends assumed; together with: 150 mM KCl; reference: input library; reading: higher = stronger binding
# Target: Fragile X messenger ribonucleoprotein 1, C-terminal low-complexity region (Fmr1, Mus musculus, UniProt P35922)
# All sequences stand within: GGGAGUUCUACAGUCCGACGAUC … UGGAAUUCUCGGGUGUCAAGG
Strand,log2 enrichment
GUCCUGUGCUACACAUCGUAUGUACCGAAUCGGGGUUUUUGGGGAGGGGAAAAAGGGGAAAGUAUUAUGUUACGCCGUUCGGAUCUGCAC,0.271
CUGUGCUACACAUCGUAUGUACCGAAUCGGGGUUUUUUUGGUUUUUUUGGGUUUUUUUGGGGAAAGUAUUAUGUUACGCCGUUCGGAUCU,-0.308
UCAAGUCCUGUGCUACACAUCGUAUGUACCGAAUCGGUUUUUUUGGAAAGGAGGAAAGUAUUAUGUUACGCCGUUCGGAUCUGCACUUCC,-0.382
UCAAGUCCUGUGCUACACAUCGUAUGUACCGAAUCGGGAAGGGGAAGGGAAGGGGAAAGUAUUAUGUUACGCCGUUCGGAUCUGCACUUC,0.532
UGUGAGACUGAAGAUUAUGGAGAAAAGUUUGAUGAAAAUGAUGUGAUUACAUGUUUUGCUGUAAGUUAAAGCUAACUUUCUAUGUAUAAA,-1.83
UGGCCCUGGUGGCAUGCGGGGCGGAAGAGGUGGCCUCAUGGAUCGUGGUGGUCCCGGUGGAAUGUUCAGAGGUGGCCGUGGUGGAGACAG,-0.147
UUCCUCAAGUCCUGUGCUACACAUCGUAUGUACCGAAUCGGAGGAGGAGGAAAGUAUUAUGUUACGCCGUUCGGAUCUGCACUUCCAGCA,-1.05
UCAAGUCCUGUGCUACACAUCGUAUGUACCGAAUCGGGGAAGGGAAGGGGAAGGAAAGUAUUAUGUUACGCCGUUCGGAUCUGCACUUCC,0.067
UGGGAGGUGGAUUUUGUUUAUUUUUUUAGCUCAUUUCCAGGGGUGGGAAUUUUAUUUUAAUAUGUGUCAUGAAUAAAGUUGUUUUUGAAA,0.186
UAAGUUUAGAGGAGGAUCUGAUGGAUAUGGCAGUGGACGUGGAUUUGGGGAUGGCUAUAAUGGGUAUGGAGGAGGACCUGGAGGUGGCAA,0.253
ACCAUGCAGGUGGGCAUCUUUGGGAAGUGGGGCAAGGGGUGGAUAGGGAGGGGGGUAACACUUUGGGAACAGGUGGUCCCAGGUCGUUUC,0.797
UGCCUCUGCGGCUAGCUGAUUUUGGGGUACUUCAUAGGAACGAGCUGUCUGGAGCACUCACAGGACUCACCCGGGUACGAAGAUUCCAAC,-1.45
AGUCCUGUGCUACACAUCGUAUGUACCGAAUCAAAUUUAAAUUUUUAAACCCCCAAAAAAGUAUUAUGUUACGCCGUUCGGAUCUGCACU,0.0664
CACAGACAACACGCACCCACACAGACACAGAGGGAAGGGGUUGGGAUGGGGUCAGGGUGCACAGCAGGGCGGGGUAGGACCCCAGCCCCU,1.47

# Sample 3 — technique: RNA Bind-n-Seq; form: RNA; medium: in vitro; tested at: 365 nM; reference: no-protein control; reading: higher = stronger binding
# Target: RNA binding protein fox-1 homolog 2, RRM domain, GST-SBP tag (RBFOX2, Homo sapiens, UniProt O43251-10, residues 100-194)
# Setting: natural RNA segment, single round, ends assumed
# All sequences stand within: GGGAGUUCUACAGUCCGACGAUC … UGGAAUUCUCGGGUGCCAA
# Target sequence (chain): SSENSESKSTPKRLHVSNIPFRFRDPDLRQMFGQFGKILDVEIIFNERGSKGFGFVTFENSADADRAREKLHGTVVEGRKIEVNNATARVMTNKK
Strand,RBNS enrichment (R)
GUCCGUAUAAACCUGUCAGCACGCACGAGGGUGUCUGUGUUCUAGGAAACGAAUGACUAAUAGCAUUAUGAGUCUUAUGUGAAGACAACACUAUUCUAACACAGGAGAUA,8.79
CAUGUGGCUUUAUGUGAGGGGACUGAAUGCAGACACACCAUAGCCCCCUUCUACUACUUUCCCUCUCGCCCUGCCACCUAGUUCCACAUGGAACCAACAAGUUGAGUGCA,0.824
CUCUUACAGGUGGAGAAUGAGUGUUUGAUGGAUAUAGGUAAGCAUAUUUAUUUGACAGCUAUGAGGAACUAAAUUUAGAGGUUUCUCCAAUCUUAUAUGAAUAUUUUUCA,0.786
CCCCUUAGAUGGAGUCUUGCUCUGUCACCCAGGUUGGAGUGCAGUGGCACAAUCAGCUCACUGCAACCCCUCCUCCUAGGUUCAAGCGAUUGAGUAGCUGAGAUUACAGG,0.261
GUCUUUGUUAUUAAAGGAACCUGCUGAUAAGUACAAGUGUGACCAUCUCAUUCAAAUGUUUGUUGUUAUGAUGCAAAUGGAUAUUGGUUUCAAUAGAAGCUGGAUCCUUA,0.99
ACUGGGCAUGUUUUGCUGGUGUGGUCUCUGCACUUCAGGAAUGGUCACAACAGGGGGUAGCCCUCAAAAGCACUCCUUUUUCUAUACCUCUUCUCAAGGCCAUGUAAGUU,0.318
GAUUGGGGGACCCUGCCUGCCUGGCUUGAGAACAGCCCUGCUGCCCUUUUGAGCCGAGAUUUUGAAGUGGAUGCCCGUCUUGCCAGAAAUGCUGUUCUCACCAGAAUGCC,0.472
AAUCCUAAAUCCCAUUUCAAAAAUAUACUUAUCAUUGGAAUUUAUCUCCCAUUUUAACCACUUUUAGAUACUGCUCCUUAUUUAAGUUACCCUUUUAGCAGAUAAUUCGG,0.978
CUUAAGUUUAAAAUAAAGCUUUUUAUACUGUAGCUUGAACUGUUUACCAUACAUUCUUUUGUAGUAAAAUAUAAGUCAGAUUUCAAUCAUCUAUGAUUCAAGACAGUGGG,0.36
AACAGGUGGGCUGCCGCCCAUGGAACCGGUGGCUGUUUCUCUACCCUUCACAUCAAGCUGGCCUUGCCCUCUCCCGGGACAGUGCCUGUUAACCUUCAUGUGACAAAACA,0.206
UGUGGUAGGCCUUUUAACAUUUUGUUCUUACACAUACAGUUUUAUGCUCUUUUUUACUCAUUGAAAUGUCAUGUGUUGUCUGAUUGGCUUGUAGAAUUGUUAUAGAUUAC,0.46
CUCUCUUGGGGUUCCACACCCAUUUCUUGCCAGCAGCUCCCAGUGAUGCUGUGUUUUGUAUGUUAGUUACACAACUUUGUGUCCUGCCAGGUCAUGUUCUAAAAUUAAGG,0.581

# Sample 4 — technique: DHFR PCA, deep sequencing; medium: yeast; together with: (+)-ABA 0.11 µM; reference: wild-type fitted maximum; reading: higher = stronger binding
# Target: ABI1, truncated, D143A, DHFR fusion (Arabidopsis thaliana)
# Setting: methotrexate growth selection, single substitutions
# Starting sequence: PYL1, truncated, DHFR fusion (Arabidopsis thaliana); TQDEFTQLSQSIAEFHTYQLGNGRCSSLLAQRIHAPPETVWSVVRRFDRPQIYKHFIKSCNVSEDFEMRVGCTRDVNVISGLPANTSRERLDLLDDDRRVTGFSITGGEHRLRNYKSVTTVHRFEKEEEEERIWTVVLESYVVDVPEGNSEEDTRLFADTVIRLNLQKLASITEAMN
Change,relative binding score [%]
E127I,21.8
H55N,20.4
F103L,-3
P50L,0.133
A158T,19.2
Y53C,-0.633
A170T,10.5
C25M,6.24
D48K,-10.9
T119K,-2.55
S104Y,-7.79
A30S,36.2

# Sample 5 — target: CREB3L1, bZIP domain (human); technique: DHFR protein complementation; medium: yeast; reference: wild-type JUN-FOS pair; reading: higher = stronger binding
# Setting: single substitutions, most at no-binding floor
# Starting sequence: JUN, bZIP domain (human); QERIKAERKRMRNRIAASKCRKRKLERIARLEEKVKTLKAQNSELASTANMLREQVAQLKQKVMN; partner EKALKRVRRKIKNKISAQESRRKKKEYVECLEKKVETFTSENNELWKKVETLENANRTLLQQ
Change,binding fitness [natural log]
L31E,-1.53
L52Y,-1.53
L45A,-1.5
K36E,-1.28
E54G,-1.35
A40S,-1.42
A46R,-1.11
L38G,-1.48
K36S,-1.48
R53F,-1.39
I28H,-1.36
A49H,-1.35
R30F,-0.984
E32C,-1.39
E54T,-1.5
A40L,-1.46
V35Q,-1.53

# Repeated from above (sample 4):
Change,relative binding score [%]
Y53C,-0.633
A30S,36.2
F103L,-3
H55N,20.4
E127I,21.8
P50L,0.133
A158T,19.2
